Assay results of several laboratories.
Parts stem from different laboratories: compare values within a part only. Positions count from the first letter of the parent shown.

Set 1
Target: ABI1, truncated, D143A, DHFR fusion (Arabidopsis thaliana)
Technique: DHFR PCA, deep sequencing
Matrix: yeast
Notes: methotrexate growth selection, single substitutions
With: (+)-ABA 0.39 µM
Baseline: wild-type fitted maximum
Direction: higher = stronger binding
Quantity: relative binding score
Starting sequence: PYL1, truncated, DHFR fusion (Arabidopsis thaliana); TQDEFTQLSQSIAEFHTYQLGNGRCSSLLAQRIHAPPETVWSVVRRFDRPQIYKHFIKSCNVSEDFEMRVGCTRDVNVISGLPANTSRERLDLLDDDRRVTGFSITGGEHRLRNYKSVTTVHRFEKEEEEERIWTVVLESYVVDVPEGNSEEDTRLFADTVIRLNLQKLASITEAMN
S117Y: 7.14%
I57Q: -16.5%
L164P: 15.1%
G81L: 3.12%
H16R: -5.25%
I79K: 11.8%
E89P: -9%
D3F: 40.4%
V43L: 28.8%
V40G: -4.44%
Q31D: -4.49%
L166N: -7.16%
W134D: 33.6%
N114K: -2.51%
G81C: 17.5%

Set 2
Target: RNA binding protein fox-1 homolog 2, RRM domain, GST-SBP tag (RBFOX2, Homo sapiens, UniProt O43251-10, residues 100-194)
Technique: RNA Bind-n-Seq
Molecule type: RNA
Matrix: in vitro
Concentration: 365 nM
Notes: natural RNA segment, single round, ends assumed
Baseline: no-protein control
Direction: higher = stronger binding
Quantity: RBNS enrichment (R)
Shared flanks, not repeated: GGGAGUUCUACAGUCCGACGAUC … UGGAAUUCUCGGGUGCCAA
Construct (chain): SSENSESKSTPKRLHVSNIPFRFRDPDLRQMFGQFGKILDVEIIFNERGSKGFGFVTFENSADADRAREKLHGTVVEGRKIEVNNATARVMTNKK
CCCGCCCCCGCCUUCCCUCUUCCCUCUUCCCUCUCCCUGCCCAGCCCUCCCUUCCUUCCUCUGCCGGCAAGGCAGGGACCCACAGUGGCUGCCUGCCUCCGGGAGGGAAG: 0.701
CUAUACUGGUCACUUACCACCUGGGGCCUCAGUUUCCUGAUCUGCGAAAGGGGCAAGGGCUAAGGCAGAUGAUAAUCUGAAGCUAGAUUAAACAGUCUAGGUGCUCCUAA: 0.428
UCUAUUCCCCAGUGAACUGAGGUUUUUACCGAUUUAUAGAGCAGUCAAAUCCGAAGUGCUCGAGUGCUUAGAAACCCCCUCUGGUGCUUGGUUGAACAAGGGAAUCACAA: 0.269
CAAAAAUAAAUGCAUGAAGAGACAUAGCCUUUUAGUUUUGCUAAUUGUGAAAUGGAAAUGCUUUACAGGAAGUAAAUGCAAAUUACUUUUAAGUGUGCUUUAAAGAAAAA: 3.04
CCUGAUGAUGGUGGCUGUAAUAUGUUGAGUUCAGUUUACUAAAGGUUUUACUAUUAUGGUUUGAAGUGGAGUCUCAUGACCUCUCAGAAUAAGGUGUCACCUCCCUGAAA: 0.555
GAUUUGGAAGGGGGGUUGGGUUGGGCUGGAUAUCUUUGUAGAUGUGGACCACCAAGGGGUUGUUGAAAACUAAUUGUAUUAAAUGUCUUUUGAUAAGCCUUCUGCUCACA: 1.15
CAGUGUUUUUACGUUUUCAGUUUAAAGGACAAAGGGCGUGCUCUCUCAGUUUGCUGUAAGAUUGUAUUCUGUAGAUAUGUUUCCAUGUACAUAAAGGAAAAUAUAUAUCA: 1.27
ACAGACUUAACUUGAUGAUGGAAAUGAUGAAAAACAGGCCUAAUGUAGGUGUAAAAGUGUAUUCAAACUCUAGACACGGCUAAUCAGAUUUUAAUUCAAUCAUACACACA: 0.465
CCGAGAUUGCUUUGAGAACUGGUAGUUAUUCUCUUUAUGUUUGGAGGCAGCCAUUAGGCUGUAGGCCUGCUUACUGCAUAGCACUGGACGUGCCAGGCACAUUCUGGCCC: 0.526
CUCUGUGUGUGUAUGUGUGUGUUUAUAUGUGUAUGUGUGUGACAGAAAAAUCUGUAGAGAAGAGGCACAUCUAUGGCUACUGUUCAAAUACAUAAAGAUAAAUUUAUUUU: 1.55
UCCCCGGAAUUAUCAAACAGCCACCGGGUGACUUUCUGGCUUCCAGAUCCAUCUGCCUGAGACCCCCGAACUCCUCUCCUCCCAAGCAGAGGCGAGUGAGUGGCAUUAGC: 0.34
UUAAUCAGAUAGAAGUUCUAGUCAAGAGGGAUAUUGUUGAAGUUACCUCUUUUAGCCUAGAUACAUGGAUUCUUUUCAAAUCAGGAAAGAUUAGAAAAGGAACCCAAAAA: 0.303

Set 3
Target: Hepatocyte nuclear factor 3-alpha (Foxa1, Mus musculus, UniProt P35582, residues 1-468, full length assumed)
UniProt P35582, sequence (whole entry, looked up): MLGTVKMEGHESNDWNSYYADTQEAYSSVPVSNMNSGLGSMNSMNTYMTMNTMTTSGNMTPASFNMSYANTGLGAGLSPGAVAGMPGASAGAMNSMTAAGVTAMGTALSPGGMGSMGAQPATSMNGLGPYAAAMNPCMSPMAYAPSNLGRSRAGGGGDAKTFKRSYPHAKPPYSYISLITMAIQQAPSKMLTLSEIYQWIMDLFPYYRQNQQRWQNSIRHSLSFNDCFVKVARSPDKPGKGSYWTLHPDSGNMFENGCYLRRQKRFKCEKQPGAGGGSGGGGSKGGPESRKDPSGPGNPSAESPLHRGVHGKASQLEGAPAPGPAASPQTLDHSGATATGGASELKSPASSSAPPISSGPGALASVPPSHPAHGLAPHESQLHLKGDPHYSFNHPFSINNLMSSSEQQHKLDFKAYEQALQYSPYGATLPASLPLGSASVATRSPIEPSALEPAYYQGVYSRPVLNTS
Technique: EMSA with sequencing
Molecule type: double-stranded DNA, one strand shown
Matrix: in vitro
Concentration: 10 and 20 nM
Notes: whole designed probe, mean of two concentrations, ends assumed
Baseline: negative control set to 0
Direction: higher = stronger binding
Quantity: normalised bound fraction
Shared flanks, not repeated: GTGAGCGGTGCCCATTGATGGGGAAC … TTTCACTGGGATCGTGGGGAC
TGATATTCCTCAAATATCGTATTTGGCAATACTAGTGGAATACGATATCTAGATAAGGTTACTGTATTGAAATGACAAGGTTGTACTGTGGACCTGTTTACTTTGTGACTTTGCCACTTATTTCCTAAAATATCACCATTACTTAAAACAATTCAAGAGCAGCCTACTCTTCCAAAATAAATTGCTTTATACA: 0.381 ratio
ATCTTCCCCCTCTTCCTTGCCCCACCAGCTCACCTACGGGGGTTATTTGCAGATAGGAAAATAAATAAAGCCGGCATTCGTTAACGCAGTTCTGGCGCAAACTGCTGTTTGCTCTGGATGAATCATGGTCCTTTGGCGAGGCGTGGCTCCGGGAGAGCAAAGCACCGTGTCAGGGCCATGATCCGGGGTGGCC: 0.347 ratio
ATCTTCCCCCTCTTCCTTGCCCCACCAGCTCACCTTCCCGGGTTATTTGCAGATAGGAAAATAAATAAAGCCGGCATTCGTTAACCCTCTTCACGCGCATACTGCTGTTTGCTCTGGATGAATCATGGTCCTTTGGCGAGGCGTGGCTCCGGGAGAGCAAAGCACCGTGTCAGGGCCATGATCCGGGCTCGCC: 0.336 ratio
TAGGAATTTGGTTAGCTCCCTAAATAACTTCTCTGCTTTCCTCATCTGCAATTAGCTAAATGGAAAGCAATCGTGATCTCAGGATAAGCCTCAAGATTACATTTGAGTTCAGACGCCCTCACCCGGTACCAAGACTGCAAAGCAGCCCCAAATACACCCTAACCCATCTTTCCAAGCATAAATCCTTTTGCTC: -0.0612 ratio
ATCTTCCCCCTCTTCCTTGCCCCACCAGCTCACCTTCCCGGGTATCTGCAAATAAGGAAAATAAATAAAGCCGGCATTCGTTAACCCTCTTCTGGCGCAAACTGCTGTTTACTTTGGATGAATCATGGTCCTTTGGCGACGCCAGGCTCCGGGAGAGCAAAGCACCGTGTCAGGGCCATGATCCGGGGTGGCC: 0.431 ratio

Set 4
Target: Prothrombin, mature alpha-thrombin (F2, Homo sapiens, UniProt P00734)
Technique: aptamer microarray, sandwich
Molecule type: DNA with 2'F-ANA
Matrix: in vitro
Concentration: 200 nM
Notes: whole 15-mer aptamer, many near background
With: Cy3 exosite-II aptamer, 400 nM
Direction: higher = stronger binding
Quantity: mean fluorescence intensity
Sequence: GGTTGGTGTGGTTGG
2'F-ANA at 1 2 5 6 7 8 10 11 12 13 14 15: 53.6 a.u.
2'F-ANA at 2 4 5 9 10 12 14: 51.7 a.u.
2'F-ANA at 1 2 9 10 12 14: 46 a.u.
2'F-ANA at 3 4 6 7 9 10 12 14 15: 180 a.u.
2'F-ANA at 2 4 7 10 12 13 15: 104 a.u.
2'F-ANA at 1 2: 216 a.u.
2'F-ANA at 4 5 7 8 11 12 14 15: 50.9 a.u.
2'F-ANA at 1 3 6 7 9 11 14 15: 73.9 a.u.
2'F-ANA at 1 2 5 6 7 8 9 10 11 12 13 15: 65.2 a.u.
2'F-ANA at 2 3 6 10 12 14: 317 a.u.
2'F-ANA at 1 2 6 7 10 11 12 13 14: 148 a.u.
2'F-ANA at 2 4 6 7 8 10 12 13 15: 107 a.u.
2'F-ANA at 2 3 5 6 8 9 10 13: 49.5 a.u.
2'F-ANA at 3 4 7 8 9 14 15: 339 a.u.
2'F-ANA at 2 3 7: 874 a.u.
2'F-ANA at 2 7 8 12 14 15: 260 a.u.
2'F-ANA at 4 6 7 9 11 14 15: 69.3 a.u.
2'F-ANA at 2 6 9 10 11 12 13 14: 90.4 a.u.
2'F-ANA at 1 2 3 4 5 6 7 9 10 14 15: 55.9 a.u.
2'F-ANA at 3 6 10 15: 534 a.u.
2'F-ANA at 2 4 7 8 9 10 15: 91.9 a.u.
2'F-ANA at 2 4 5 6 7 10 12: 64.9 a.u.
2'F-ANA at 2 4 6 8 10 14: 58.5 a.u.
2'F-ANA at 2 3 5 6 8 13 14 15: 54 a.u.
2'F-ANA at 1 2 3 5 10 11 14: 44.5 a.u.

Set 5
Target: Histone acetyltransferase KAT6A, both winged helices, GST fusion (KAT6A, Homo sapiens, UniProt Q92794, residues 1-181)
Technique: protein binding microarray
Molecule type: double-stranded DNA, one strand shown
Matrix: in vitro
Concentration: not given
Notes: 8-mer, flanks averaged, mean of 2 arrays, mostly near background
Baseline: not given
Direction: higher = stronger binding
Quantity: E-score
Residues (chain): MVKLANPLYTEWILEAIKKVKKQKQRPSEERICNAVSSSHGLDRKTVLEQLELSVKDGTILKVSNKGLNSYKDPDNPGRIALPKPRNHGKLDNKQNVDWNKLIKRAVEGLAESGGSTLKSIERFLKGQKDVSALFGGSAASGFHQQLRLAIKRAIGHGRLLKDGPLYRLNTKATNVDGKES
GCCGGATA: 0.172
AATGTTTA: -0.0551
AATTTCAC: -0.163
AGCTATAC: -0.0904
AACGCCTT: 0.165
CAAAGCTA: -0.0214
GGAGAACC: -0.035
CATATCAA: -0.0958
CGCAACTA: 0.0581
CAGTACCA: -0.196
CGGTTACC: 0.166
CAAGAGTC: -0.115
GTAAGTCA: -0.0587
GGAGGTGA: -0.115
AGAACTAA: -0.131
CCGTTAAA: 0.134
TACCGCCA: 0.11
GGACATTA: 0.158

Some of these lines once more (set 1):
V43L: 28.8%
V40G: -4.44%
Q31D: -4.49%
L166N: -7.16%
W134D: 33.6%
